Published values collected from several papers.
Compare with care: the assays were run in different laboratories. ± gives the spread as reported.
Target: Alpha-glucosidase MAL12 (MAL12, Saccharomyces cerevisiae S288c, UniProt P53341)
Sequence of UniProt P53341 (whole entry, looked up): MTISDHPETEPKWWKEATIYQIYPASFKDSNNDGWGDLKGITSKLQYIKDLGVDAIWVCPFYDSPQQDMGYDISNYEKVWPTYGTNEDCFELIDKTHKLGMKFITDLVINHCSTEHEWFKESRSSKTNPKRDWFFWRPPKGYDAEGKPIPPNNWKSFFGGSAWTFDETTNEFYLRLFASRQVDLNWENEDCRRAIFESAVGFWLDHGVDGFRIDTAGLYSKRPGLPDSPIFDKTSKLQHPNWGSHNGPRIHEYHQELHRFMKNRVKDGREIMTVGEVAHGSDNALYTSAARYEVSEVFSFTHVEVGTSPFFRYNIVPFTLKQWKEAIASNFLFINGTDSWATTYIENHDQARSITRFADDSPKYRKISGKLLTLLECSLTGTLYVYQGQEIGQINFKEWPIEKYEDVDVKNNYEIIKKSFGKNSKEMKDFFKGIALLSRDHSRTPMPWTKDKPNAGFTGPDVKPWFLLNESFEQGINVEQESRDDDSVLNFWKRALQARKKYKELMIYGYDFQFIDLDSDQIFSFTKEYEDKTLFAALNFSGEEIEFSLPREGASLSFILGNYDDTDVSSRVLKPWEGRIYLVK

COc1cc(Cn2ccnc2)ccc1O
inhibition (inhibitor; 25 µM): < 0%

Oc1cc2c(cc1O)C(c1ccc3[nH]ccc3c1)NCC2 (stereo not shown)
inhibition (enzyme activity, inhibitor; 100 µM, DMSO solvent, added: pNPG substrate): 66.3 ± 1.48%

CC(C)(COC(=O)c1ccccc1)CC1=C(O)C(=O)c2ccccc2C1=O
inhibition (enzyme activity; 50 µM): inactive

Oc1cccc(C2NCCc3cc(O)c(O)cc32)c1 (stereo not shown)
inhibition (enzyme activity, inhibitor; 100 µM, DMSO solvent, added: pNPG substrate): 51.6 ± 3.07%

NC(=O)Cc1ccc(O)c(Cc2ccc(O)cc2)c1
inhibition (inhibitor; 100 µg/mL, 0.4167 h, added: p-nitrophenyl glucoside substrate): > 50%

Oc1ccccc1Cn1ccnc1
inhibition (inhibitor; 25 µM): < 0%

COc1cc([C@H](O)[C@H](O)CO)ccc1O
inhibition (inhibitor; 100 µg/mL, 0.4167 h, added: p-nitrophenyl glucoside substrate): 38.5 ± 3.6%

COc1ccc(-c2coc3c(Cn4cnc5ccccc54)c(O)ccc3c2=O)cc1OC
inhibition (inhibitor; 25 µM): 18.8%

CCOC(=S)NCc1ccc(O[C@@H]2O[C@@H](C)[C@H](O)[C@@H](O)[C@H]2O)cc1
inhibition (inhibitor; 100 µg/mL, 0.4167 h, added: p-nitrophenyl glucoside substrate): 30 ± 4.75%

OCc1ccc(C2NCCc3cc(O)c(O)cc32)o1 (stereo not shown)
inhibition (enzyme activity, inhibitor; 100 µM, DMSO solvent, added: pNPG substrate): 62.3 ± 1.14%

A few entries again:
COc1cc([C@H](O)[C@H](O)CO)ccc1O
inhibition (inhibitor; 100 µg/mL, 0.4167 h, added: p-nitrophenyl glucoside substrate): 38.5 ± 3.6%

COc1ccc(-c2coc3c(Cn4cnc5ccccc54)c(O)ccc3c2=O)cc1OC
inhibition (inhibitor; 25 µM): 18.8%
